Assay results collected from several papers.
Lines come from different studies, so protocols differ. ± marks the error that the study gave.

CC(=O)Oc1ccccc1C(=O)[O][Pt]([NH2])([NH2])([Cl])([Cl])[O]C(C)=O — IC50 (C13* cisplatin-resistant ovarian; cytotoxicity, MTT; 72 h): 0.71 ± 0.1 µM
O=C(Nc1cc(C(=O)Nc2ccc3[nH]ncc3c2)ccc1F)Nc1cc(C(F)(F)F)ccc1F — IC50 (KM12; cell growth or viability, ATP luminescence; 72 h): 38.9 µM
NC(=S)NN=Cc1ccc([N+](=O)[O-])o1 — IC50 (CAKI-1; cell growth or viability, resazurin): 21.7 µM
CC(=O)N(C)Cc1cccc(-c2cc3c(c(C(F)(F)F)c2)CCCC3N(C)C(=O)CCOCCOCCC(=O)N(C)C2CCCc3c2cc(-c2cccc(CN(C)C(C)=O)c2)cc3C(F)(F)F)c1 (centres unmarked) — IC50 (CHO-K1; protein synthesis): 11.7 µM
NC(=O)c1ccc(-c2ccccc2Cl)c2c3c([nH]c12)CC[C@H](N)C3 — IC50 (K562; cell growth or viability): 0.0209 µM
C[C@@H](c1ccccc1)N1C(=O)C2=Nc3ccccc3CN2C1=S — IC50 (healthy human PBMCs; cell viability, resazurin): 2.9 ± 0.2 µM
CC(C)c1ccc(N(C)c2ccc3c(c2)OCC[C@H]3CNc2cnccc2C(=O)O)cc1 — IC50 (SCC-25; cell viability; 7 days): ≥ 10 µM
Cc1cnc2nc1Nc1cccc(c1)COC/C=C/COCc1cc(ccc1OCCN1CCCCC1)N2 — IC50 (SET-2; cell growth or viability, CCK-8): 14.6 µM
Cc1ccc2c(c1C#Cc1ccc(O)cc1)C(c1ccc(O)cc1)(c1ccc(O)cc1)c1cc(O)ccc1-2 — IC50 (MGC-803; cell growth or viability, MTT; 48 h): 10.1 µM
CNS(=O)(=O)Nc1nccc(Cc2c(C)c3ccc(Oc4ncccc4F)cc3oc2=O)c1F — IC50 (NCI-H727; cell viability; 7 days): 0.001 µM
CC(C)=CC1OC(C)(C)C2C=C3C(=O)C(Cl)=CC(O)C3C3C(O)C4OC4C(=O)C132 (centres unmarked) — IC50 (NALM-6; cell growth or viability, MTS): 1.72 µM
C[C@@H](c1ccc2ccccc2c1)N1C(=O)C2=Nc3ccccc3CN2C1=S — IC50 (healthy human PBMCs; cell viability, resazurin): 2.1 ± 1.5 µM
O=C(Nc1ccc(C(=O)Nc2ccc3[nH]ncc3c2)c(F)c1)Nc1cc(C(F)(F)F)ccc1F — IC50 (KM12; cell growth or viability, ATP luminescence; 72 h): > 50 µM
CCC(=CCc1c(O)cc2c(c1O)C(=O)CC(c1cccc(O)c1OC)O2)CC (centres unmarked) — IC50 (normal pig cell line; cytotoxicity, MTT; 48 h): 53.6 ± 8.6 µM
CCOc1cncc(-c2ccc(NC(=O)C3(c4ccnc(NS(=O)(=O)C5CC5)n4)CCOCC3)nc2)n1 — IC50 (RPMI-2650; cell proliferation, CellTiter-Glo; 72 h): 1.44 µM
Cc1ncsc1-c1ccc(C(C)NC(=O)C2CC(O)CN2C(=O)C(NC(=O)CCCCCCCCCCN2CCCC(Nc3ncc(Cl)c(Nc4ccccc4S(=O)(=O)C(C)C)n3)C2)C(C)(C)C)cc1 (centres unmarked) — log2 fold change (22Rv1; RNA-seq, measured: ZSWIM3 mRNA; concentration not given; baseline: DMSO): -2.55
CCC(=CCc1c(O)cc2c(c1O)C(=O)CC(c1cccc(OC)c1O)O2)CC (centres unmarked) — IC50 (normal pig cell line; cytotoxicity, MTT; 48 h): 10.9 ± 2.4 µM

A few entries again:
CC(C)=CC1OC(C)(C)C2C=C3C(=O)C(Cl)=CC(O)C3C3C(O)C4OC4C(=O)C132 (centres unmarked) — IC50 (NALM-6; cell growth or viability, MTS): 1.72 µM
CC(=O)Oc1ccccc1C(=O)[O][Pt]([NH2])([NH2])([Cl])([Cl])[O]C(C)=O — IC50 (C13* cisplatin-resistant ovarian; cytotoxicity, MTT; 72 h): 0.71 ± 0.1 µM
Cc1cnc2nc1Nc1cccc(c1)COC/C=C/COCc1cc(ccc1OCCN1CCCCC1)N2 — IC50 (SET-2; cell growth or viability, CCK-8): 14.6 µM
